Published values from different studies.
Every numbered part comes from another study and shows a few of its results, in no order.

Block 1 — method: protein binding microarray; form: double-stranded DNA, one strand shown; medium: in vitro; tested at: not given; relative to: not given; direction: higher = stronger binding
Target: Histone acetyltransferase KAT6A, winged helix 1, GST fusion (KAT6A, Homo sapiens, UniProt Q92794, residues 1-85)
Notes: 8-mer, flanks averaged, mean of 2 arrays, mostly near background
Construct (chain): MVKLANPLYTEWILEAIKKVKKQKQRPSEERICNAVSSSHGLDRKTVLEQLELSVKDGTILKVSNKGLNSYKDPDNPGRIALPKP
`ACCCCGGC` gave an E-score of 0.312.
`GGCGTATA` gave an E-score of 0.241.
With `CCAGATCG` the E-score was -0.0244.
`CCTCGGGA` has an E-score of 0.0733.
The E-score of `TGCGATAA` is reported as -0.168.
For `ACACCCAA`, the E-score was -0.182.
For `CCATAGAA`, the E-score was -0.113.
The E-score of `TCTTAGCA` is reported as -0.136.
With `ACTCATAT` the E-score was -0.106.
For `CCAAAACC`, the E-score was -0.0569.
`TAGAGTAA` gave an E-score of -0.0457.

Block 2 — method: RNA Bind-n-Seq; form: RNA; medium: in vitro; tested at: 365 nM; relative to: no-protein control; direction: higher = stronger binding
Target: RNA binding protein fox-1 homolog 2, RRM domain, GST-SBP tag (RBFOX2, Homo sapiens, UniProt O43251-10, residues 100-194)
Notes: natural RNA segment, single round, ends assumed
Construct (chain): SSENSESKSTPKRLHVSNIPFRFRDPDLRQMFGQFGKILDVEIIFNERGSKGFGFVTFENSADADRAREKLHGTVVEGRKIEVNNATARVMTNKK
`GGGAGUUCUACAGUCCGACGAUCAGUUUAAAGUCAUGUUUUUAAAAUCUUAUUAAAGUUUCAAAAAUCUGAAGAUUGUUUAUCUUAUCUAGAUGUAAAUUUUUAUUAAAAAGUUGCACUUAUGAAAAAGCAAAUGGAAUUCUCGGGUGCCAA` — result for “RBNS enrichment (R)”: 0.733.
`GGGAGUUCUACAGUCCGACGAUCCGUCCUUUACCAGUGUCAACCCCAGAGGCUUUCUCUCUCCAGAACUGGCCAGCUAGAGACCGUUCUAAAGUCCACUGGAAGUCAAGAAUCUCGUUUACUGAUAAUAGUAAUGGAAUUCUCGGGUGCCAA` — result for “RBNS enrichment (R)”: 0.36.
`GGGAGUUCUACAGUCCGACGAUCUUAGAUGACUUAAGUUAGCUAUAGGUUCAAGACCUGGACUAAAGUAUUACUUGGAAAUUCUGAGUAUUGCUAAAAAGGAGGAUGAAAGGGACCUAGAAGUUGAGUUAUUAUGGAAUUCUCGGGUGCCAA` — result for “RBNS enrichment (R)”: 0.41.
For `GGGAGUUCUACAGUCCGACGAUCUUUUUGUUUUGUUUUGUUUUCUUUUGUUUCUCCUAAGGGACAAGCAUGGGUGUUUGAUUUCAGAAAUCAGUAUCUGGUGAGAUUUUUGUCUCAAAACUACCAUUUGAAUUUGGAAUUCUCGGGUGCCAA`, “RBNS enrichment (R)” read 1.45.
`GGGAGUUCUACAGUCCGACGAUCCUUUGGUUUGCUUUCUUCAGGCUCUAGGGCUGUGCUAUCCAAUACAGUAACCACAUGCGGCUGUUUAAAGUUAAGCCAAUUAAAAUCACAUAAGAUUAAAAAUUCCUUCCUGGAAUUCUCGGGUGCCAA` — result for “RBNS enrichment (R)”: 0.46.
`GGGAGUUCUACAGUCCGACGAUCGGUCCCUGUGCCCUGGCCUGGGGGAGGGGAACGCGGAACAUGGGGUCGGGAACACAGCCGCUCCCCUCUGCUCUGCACCCCACUCGUGGGGGAACACAGCCGCUCCCCUCUGGAAUUCUCGGGUGCCAA`: “RBNS enrichment (R)” 0.558.
`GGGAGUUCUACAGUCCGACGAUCUGUCUUCUUGUGUAUGGCAGGGCUGGGACUGCUGUCCCUUGUACAGUUUUCUGUCACUGGUGGGCACUGGACAGGCAUAGCAGACUCUCUUGUGGCCACACUAGGUUGUCUGGAAUUCUCGGGUGCCAA`: “RBNS enrichment (R)” 0.207.
`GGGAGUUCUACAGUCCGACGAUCGUAAGGGUCCUCUGUUUUUGAUUCACCCAAAAGUCUGCAAACCCCCAGCAUCUCUGCUCUGGCCAGCCCUGAUCUGAAGCCUGUGUCUACUAAGAGGGAUGCCCAGUGCCUGGAAUUCUCGGGUGCCAA` — result for “RBNS enrichment (R)”: 0.447.
Under “RBNS enrichment (R)”, `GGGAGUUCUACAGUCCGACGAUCGAUCCCCUCCAUUUAUUUGUUUAAUUUGGGUGGUGAUUCUGAAAUGAAUACUCUCUAGGAAAUGUGCAAUUUCAUGGUAAUUAUUUUUUAGAAAAGUCAAUUUAAUAAAUUGGAAUUCUCGGGUGCCAA` is recorded as 0.689.
For `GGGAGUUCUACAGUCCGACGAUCUUACACCUGUUUACAAUUUGGGGACAAAAAGGCAGGCUUCAUUUUUCAUAUGUUUGAUGAAAACUGGCUCAAGAUGUUUGUAAAUAGAAUCAAGAGCAAAACUGCACAAAUGGAAUUCUCGGGUGCCAA`, “RBNS enrichment (R)” read 0.823.
Under “RBNS enrichment (R)”, `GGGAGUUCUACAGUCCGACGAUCAUGUUAUAAAAAUUGUCAUUGAAUUCUUUAAUGGUGUCCAACCACGAUGAUAUUGCUGAUCAAAAGUUAUGAACAGAAAUAAGAGUGACAGCUAGCUAAGUCAAGCUUUUUGGAAUUCUCGGGUGCCAA` is recorded as 0.301.
Under “RBNS enrichment (R)”, `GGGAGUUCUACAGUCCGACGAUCUGCUGUCUGCCUAGGAAUCCUUCAGUGGUAUGGGACACUCCUCAAGUGAGCCAAAUGCCCGUUCUUUCUCCCUUCCUUGAACUCCAGGUCCUGUGCUGUGUCUGUACUCAUGGAAUUCUCGGGUGCCAA` is recorded as 0.808.

Block 3 — method: protein-binding microarray; form: double-stranded DNA, one strand shown; medium: in vitro; tested at: 250 nM; notes: 60-bp whole probe; together with: salmon DNA 0.4 mg/ml; relative to: random background probes; direction: higher = stronger binding; all sequences stand within: GCCTAGCAC … GTCTTGATTCGCTTGACGCTGCTG
Target: Interferon regulatory factor 5, full length, phosphomimetic (IRF5, Homo sapiens, UniProt Q13568-2, residues 1-514, K96S/S451D/S453D/S456D/S462D)
`GACGGACTGGACATTGGGGACGTGCTA` gave a log fluorescence of -0.465 z-score.
The log fluorescence of `AACGGACTGGGGTTTCGGGACGTGCTA` is reported as 1.12 z-score.
`TTAGGTATCGGTCTCGGTTTGTGCTAG` gave a log fluorescence of 7.11 z-score.
`TTAAGTTTCGGACTGGGTTAGTGCTAG` gave a log fluorescence of 7.57 z-score.
The log fluorescence of `TTAGATTTCGGGACTGGATTGGTGCTA` is reported as 2.58 z-score.
`TCATTTATTTATTTTTAACTGTGCTAG` gave a log fluorescence of 0.982 z-score.
`TTAGGACGGGACACTGGGTTAGTGCTA` gave a log fluorescence of -0.513 z-score.
For `GACGAACTAAGTATCGAGACGTGCTAG`, the log fluorescence was 1.77 z-score.
`TCAGTATTATTTATTGTACTGTGCTAG` gave a log fluorescence of 0.446 z-score.
`GACGATCTCAGTATAGAGACGTGCTAG` has a log fluorescence of -0.114 z-score.
For `TCAAATGCCCTTTTGGTACTGTGCTAG`, the log fluorescence was 0.341 z-score.

Further values, each from its own experiment
`PhoQ, residues 284 288 289 292 302 303 HSSMNL` gave a fold induction of 10.5 (PhoP, residues 12 14 15 18 19 IFFTR (Escherichia coli, UniProt P23836); Sort-seq, item: YFP reporter; E. coli; PhoQ-PhoP variant library, together with: 10 µM Mg2+; relative to: high Mg2+ state, higher = stronger signaling).

A few entries again (block 3):
`TTAGGTATCGGTCTCGGTTTGTGCTAG` gave a log fluorescence of 7.11 z-score.
The log fluorescence of `AACGGACTGGGGTTTCGGGACGTGCTA` is reported as 1.12 z-score.
The log fluorescence of `TTAGATTTCGGGACTGGATTGGTGCTA` is reported as 2.58 z-score.
`TTAAGTTTCGGACTGGGTTAGTGCTAG` gave a log fluorescence of 7.57 z-score.
